Measurements gathered from unrelated publications.
Compare with care: the assays were run in different laboratories.
Chain of UniProt P11388 (whole entry, looked up): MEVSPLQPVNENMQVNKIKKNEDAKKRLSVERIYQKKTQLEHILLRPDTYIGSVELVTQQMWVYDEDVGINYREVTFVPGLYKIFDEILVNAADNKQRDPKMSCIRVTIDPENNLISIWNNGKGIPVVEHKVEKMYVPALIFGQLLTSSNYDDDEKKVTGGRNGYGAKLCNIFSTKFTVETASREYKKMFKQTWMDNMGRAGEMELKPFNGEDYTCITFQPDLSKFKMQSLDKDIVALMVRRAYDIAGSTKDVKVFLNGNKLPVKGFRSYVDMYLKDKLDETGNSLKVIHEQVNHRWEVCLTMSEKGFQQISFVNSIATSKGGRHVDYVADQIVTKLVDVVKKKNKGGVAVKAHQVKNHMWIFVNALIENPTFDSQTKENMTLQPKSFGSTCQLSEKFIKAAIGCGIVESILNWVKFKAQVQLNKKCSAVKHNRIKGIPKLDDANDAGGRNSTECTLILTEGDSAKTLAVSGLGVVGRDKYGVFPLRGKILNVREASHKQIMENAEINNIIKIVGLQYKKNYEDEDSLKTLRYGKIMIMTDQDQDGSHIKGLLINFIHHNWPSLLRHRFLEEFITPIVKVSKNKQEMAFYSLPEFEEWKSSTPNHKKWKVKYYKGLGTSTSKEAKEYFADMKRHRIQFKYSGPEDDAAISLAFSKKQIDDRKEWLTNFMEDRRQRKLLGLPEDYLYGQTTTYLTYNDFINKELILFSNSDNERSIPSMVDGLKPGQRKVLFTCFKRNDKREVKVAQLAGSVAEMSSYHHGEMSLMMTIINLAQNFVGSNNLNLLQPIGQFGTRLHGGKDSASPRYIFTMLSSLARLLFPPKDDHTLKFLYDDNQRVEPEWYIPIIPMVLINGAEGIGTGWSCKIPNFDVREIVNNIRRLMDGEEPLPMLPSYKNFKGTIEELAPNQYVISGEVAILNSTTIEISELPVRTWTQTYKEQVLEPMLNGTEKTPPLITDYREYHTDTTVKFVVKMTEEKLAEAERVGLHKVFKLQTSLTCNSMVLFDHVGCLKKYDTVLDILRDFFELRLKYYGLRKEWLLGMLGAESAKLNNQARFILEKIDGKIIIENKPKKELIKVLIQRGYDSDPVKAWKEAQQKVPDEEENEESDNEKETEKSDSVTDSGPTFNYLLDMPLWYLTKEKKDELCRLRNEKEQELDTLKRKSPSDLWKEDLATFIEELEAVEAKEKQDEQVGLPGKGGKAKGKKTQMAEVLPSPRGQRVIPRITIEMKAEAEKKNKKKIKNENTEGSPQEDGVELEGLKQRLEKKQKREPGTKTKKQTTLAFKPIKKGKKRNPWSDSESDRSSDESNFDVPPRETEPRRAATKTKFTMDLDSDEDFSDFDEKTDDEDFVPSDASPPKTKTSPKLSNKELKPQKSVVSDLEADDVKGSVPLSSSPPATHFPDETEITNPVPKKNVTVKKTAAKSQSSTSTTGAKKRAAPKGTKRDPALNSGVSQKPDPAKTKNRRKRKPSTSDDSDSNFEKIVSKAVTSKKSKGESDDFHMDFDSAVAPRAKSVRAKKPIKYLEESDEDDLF

Compound	target or system	test	test system	conditions	how to read	endpoint	result
Fc1ccccc1Cc1nc(-c2nc(C(F)(F)F)n[nH]2)cn2ccnc12		item: Asthenia	healthy humans	oral, 10 mg, fasted, single dose		subjects with adverse events	0%
COc1cc([C@@H]2c3cc4c(cc3[C@@H](O[C@@H]3O[C@@H]5CO[C@@H](C)O[C@H]5[C@H](O)[C@H]3O)[C@H]3COC(=O)[C@H]23)OCO4)cc(OC)c1O	TOP2A (Homo sapiens, UniProt P11388)	enzyme activity, inhibitor		15.6 µM		inhibition	86.7%
N#CCC1CCN(c2nc(Nc3ccc(N4CCC(O)CC4)cc3)c3c(=O)[nH]ncc3n2)CC1		vs placebo, Olink multiplex	human, serum	80 mg, day 29, unit not given	relative to: placebo	GIF level difference	1.61
COC(=O)Nc1c(N)nc(-c2nn(Cc3ccccc3F)c3ncc(F)cc23)nc1N			healthy male humans, plasma	oral, 2.5 mg, phase I DDI study, with: sacubitril/valsartan		Cmax	75.2 ng/mL

A few entries again:
Compound	target or system	test	test system	conditions	how to read	endpoint	result
COc1cc([C@@H]2c3cc4c(cc3[C@@H](O[C@@H]3O[C@@H]5CO[C@@H](C)O[C@H]5[C@H](O)[C@H]3O)[C@H]3COC(=O)[C@H]23)OCO4)cc(OC)c1O	TOP2A (Homo sapiens, UniProt P11388)	enzyme activity, inhibitor		15.6 µM		inhibition	86.7%
